# Measured values collected from several papers.
# Compare with care: the assays were run in different laboratories. ± gives the spread as reported.
SMILES,cell line,assay,conditions,EC50
Cc1cc2cc(O)c(O)cc2c(O)c1-c1c(C)cc2cc(O)c(O)cc2c1O,PC3-ML,ATP-lite viability,72 h,12.6 µM
Cc1cc(N)c2ccccc2[n+]1CCCCCCCCCCCCCC[n+]1c(C)cc(N)c2ccccc21,neuroblastoma tumour-initiating cells,sphere formation,"6 days, retreated on day 3, mean over lines",0.00038 µM
CCOC(=O)c1c(C)oc2nc(N3CCN(c4ccccc4)CC3)ccc12,CRL8155,cell growth or viability,48 h,> 50 µM
NC(COc1cc(C(F)(F)F)cc(C(F)(F)F)c1)c1ccccc1 (centres unmarked),hiPSC cardiomyocytes,"action potential prolongation, kinetic imaging cytometry, measured: APD75",,> 200 µM
Cc1ccc2nc(-c3ccccc3)c(CN3CCN(c4ccc(Cl)cc4)CC3)n2c1,CRL8155,cell growth or viability,48 h,49 µM
Nc1nc2c(ncn2[C@@H]2O[C@@H]3COP(=O)(O)O[C@@H]4[C@@H](F)[C@H](n5cnc6c(N)ncnc65)O[C@@H]4CSP(=O)(O)O[C@@H]2[C@@H]3O)c(=O)[nH]1,THP1-Dual,"IRF reporter, agonist",24 h,> 50 µM
O=C(Cc1ccc([N+](=O)[O-])cc1)N[C@@H](Cc1c[nH]c2ccccc12)C(=O)NCC1(c2ccccn2)CCCCC1,human neutrophils,"calcium mobilisation, agonist",added: 2.5 mM probenecid,5.5 ± 1.5 µM
FC(F)(F)c1ccnc(-c2cc(C(F)(F)F)ccn2)c1.FC(F)(F)c1ccnc(-c2cc(C(F)(F)F)ccn2)c1.[Cl-].[Cl-].[Ru+2].c1csc(-c2ccc(-c3ccc(-c4ccc(-c5nc6c7cccnc7c7ncccc7c6[nH]5)s4)s3)s2)c1,SK-MEL-28,cell viability,"100 J/cm2 light, normoxia, added: visible light 400-700 nm",0.01 µM
CCC/C(=C\C1=C(OC)C(=O)c2ccccc2C1=O)C(=O)NOC,Pa03C cells,"HIF1α reporter gene, luciferase reporter","24 h, 1% oxygen hypoxia",9.7 ± 1.24 µM
CCOC(=O)c1c(C(C)C)oc2nc(N3CCCC3)ccc12,CRL8155,cell growth or viability,48 h,> 50 µM
CC(C)C[C@H](NC(=O)[C@H](CC(=O)O)NC(=O)[C@H](Cc1ccc(O)cc1)NC(=O)CNC(=O)CN(C)C(=O)CCCC(=O)O)C(=O)N[C@@H](Cc1ccc(O)cc1)C(=O)N[C@@H](CCCNC(=N)N)C(=O)N[C@H](C(=O)N[C@@H](CCCNC(=N)N)C(=O)N[C@@H](CO)C(N)=O)C(C)C,human dermal microvascular endothelial cells,,added: VEGF,0.03 µM
CC(C)[C@H](C(=O)Nc1ncc(F)s1)c1ccc(Cl)cc1,HEK293 expressing human GPR43,"NF-κB reporter gene, luciferase",added: 10 ng/mL TNF-α,12 µM
C(=C/c1ccccc1)/c1ccccc1,MOLT-3,"apoptosis, Hoechst nuclear staining","24 h, 50% apoptosis induction",50 µM
COc1cccc(Cc2cc(C)nn(S(=O)(=O)c3cccc4c(N(C)C)cccc34)c2=O)c1,human neutrophils,"calcium flux, agonist",,26 ± 13.8 µM
Cc1ccc2nc(-c3ccc(Cl)cc3)c(CN3CCN(c4cccc(C(F)(F)F)c4)CC3)n2c1,CRL8155,cell growth or viability,48 h,> 50 µM
CC(C)C[C@H](NC(=O)[C@H](CC(N)=O)NC(=O)[C@H](Cc1ccc(O)cc1)NC(=O)CNC(=O)CN(C)C(=O)CCCC(=O)O)C(=O)N[C@@H](Cc1ccc(O)cc1)C(=O)N[C@@H](CCCNC(=N)N)C(=O)N[C@H](C(=O)N[C@@H](CCCNC(=N)N)C(=O)N[C@@H](CO)C(N)=O)C(C)C,human dermal microvascular endothelial cells,,added: VEGF,0.015 µM
Cc1ccc2nc(-c3ccccc3)c(CN3CCN(c4cccc(Cl)c4Cl)CC3)n2c1,CRL8155,cell growth or viability,48 h,33 µM
CC1=C(C2=C(C)C(=O)c3c(cc(O)c(O)c3Cc3ccccc3)C2=O)C(=O)c2cc(O)c(O)c(Cc3ccccc3)c2C1=O (racemic),H23 human lung cancer,"cell viability, ATP luminescence",72 h,0.25 ± 0.01 µM
Cc1ccc2nc(-c3ccc(F)c(F)c3)c(CN3CCC(c4ccccc4)CC3)n2c1,CRL8155,cell growth or viability,48 h,> 50 µM
CCC/C(=C\C1=C(C(F)(F)F)C(=O)c2ccccc2C1=O)C(=O)N(CC)CC,Pa03C cells,3D spheroid co-culture,co-culture with CAF19,6.4 µM
Cc1ccc2nc(-c3ccc(F)c(F)c3)c(CN3CCN(c4cccc(C(F)(F)F)c4)CC3)n2c1,CRL8155,cell growth or viability,48 h,> 50 µM
Cc1cc(NC(=O)c2cccc(-n3cc(NC(=O)Nc4ccc(F)cc4)cn3)c2)ccn1,SH-SY5Y,"c-Jun phosphorylation, inhibitor, in-cell Western",added: 6-OHDA,> 10 µM
CCC/C(=C\C1=C(F)C(=O)c2ccccc2C1=O)C(=O)N(CC)CC,NF90-8 cells,"HIF1α reporter gene, luciferase reporter","24 h, 1% oxygen hypoxia",9.7 ± 1.21 µM

# Repeated from above:
SMILES,cell line,assay,conditions,EC50
Cc1ccc2nc(-c3ccccc3)c(CN3CCN(c4cccc(Cl)c4Cl)CC3)n2c1,CRL8155,cell growth or viability,48 h,33 µM
CCC/C(=C\C1=C(F)C(=O)c2ccccc2C1=O)C(=O)N(CC)CC,NF90-8 cells,"HIF1α reporter gene, luciferase reporter","24 h, 1% oxygen hypoxia",9.7 ± 1.21 µM
Cc1cc(NC(=O)c2cccc(-n3cc(NC(=O)Nc4ccc(F)cc4)cn3)c2)ccn1,SH-SY5Y,"c-Jun phosphorylation, inhibitor, in-cell Western",added: 6-OHDA,> 10 µM
